Measured values gathered from unrelated publications.
Each numbered part is a random draw from the data of one study; scales do not carry over between parts.

Set 1 — Compound: c1cnc(SCc2cccnc2)nc1; observed: enzyme activity; quantity: inhibition
rep main protease: Replicase polyprotein 1ab, main protease (rep, Severe acute respiratory syndrome coronavirus 2, UniProt P0DTD1)
target = rep main protease; assay = inhibitor; setting = 20 µM, hit confirmation, no DTT; value = 98.1%
target = Replicase polyprotein 1ab, 3C-like proteinase (rep, Middle East respiratory syndrome-related coronavirus, UniProt K9N7C7); setting = 10 µM; value = 19%
target = rep main protease; assay = inhibitor; setting = 20 µM, hit confirmation, with DTT; value = -6.8%

Set 2 — technique: universal PBM; form: double-stranded DNA, one strand shown; sample: in vitro; concentration: not given; reading: higher = stronger binding; quantity: E-score
Target: Sal-like protein 4, full length isoform B (SALL4, Homo sapiens, UniProt Q9UJQ4-2, residues 1-616)
Setting: 8-mer, flanks averaged, mean of replicates
Construct (chain): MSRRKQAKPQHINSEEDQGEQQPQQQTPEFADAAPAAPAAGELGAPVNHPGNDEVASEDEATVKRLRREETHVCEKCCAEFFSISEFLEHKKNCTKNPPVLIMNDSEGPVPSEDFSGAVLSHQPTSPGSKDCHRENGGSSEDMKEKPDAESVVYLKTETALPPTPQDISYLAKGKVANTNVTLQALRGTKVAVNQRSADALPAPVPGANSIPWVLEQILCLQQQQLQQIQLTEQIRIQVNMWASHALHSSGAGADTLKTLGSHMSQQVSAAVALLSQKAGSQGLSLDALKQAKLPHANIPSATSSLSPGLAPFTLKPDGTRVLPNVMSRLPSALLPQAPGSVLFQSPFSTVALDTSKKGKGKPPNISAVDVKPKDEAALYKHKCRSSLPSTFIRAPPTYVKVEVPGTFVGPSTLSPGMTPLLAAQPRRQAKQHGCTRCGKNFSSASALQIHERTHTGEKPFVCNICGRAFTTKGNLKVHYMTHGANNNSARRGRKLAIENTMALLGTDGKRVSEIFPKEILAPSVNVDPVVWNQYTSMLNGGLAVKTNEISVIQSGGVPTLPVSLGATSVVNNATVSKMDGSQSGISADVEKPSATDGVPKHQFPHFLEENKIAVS
Strand = AGCATTGG; value = 0.0404
Strand = GCCAGGTA; value = -0.242
Strand = CTCCCCGC; value = -0.18
Strand = ACTCGACG; value = -0.125
Strand = AGCTAGAC; value = -0.218
Strand = CGACGGGC; value = -0.163
Strand = AAAATTCG; value = 0.295
Strand = ATTCAGTG; value = 0.0843

Set 3 — observed: enzyme activity; action: inhibitor; concentration: 20 µM; quantity: inhibition
Target: Replicase polyprotein 1ab, polymerase (rep, Severe acute respiratory syndrome coronavirus 2, UniProt P0DTD1)
Structure (SMILES) = NC[C@@H]1O[C@H](O[C@H]2[C@@H](O)[C@H](O[C@@H]3[C@@H](O)[C@H](N)C[C@H](N)[C@H]3O[C@H]3O[C@H](CO)[C@@H](O)[C@H](O)[C@H]3N)O[C@@H]2CO)[C@H](N)[C@@H](O)[C@@H]1O; value = -4.05%
Structure (SMILES) = CC(=O)c1ccc2c(c1)N(CCCN1CCN(CCO)CC1)c1ccccc1S2; value = -3.36%
Structure (SMILES) = COC(=O)CC[C@@H]1N=C(c2ccccn2)c2cc(Br)ccc2-n2c(C)cnc21; value = -2.64%
Structure (SMILES) = N#Cc1ccc(N(Cc2ccc(Br)cc2)n2cnnc2)cc1; value = -0.19%
Structure (SMILES) = CCN(CC)CCn1c(=O)c(Cc2ccc(OC)cc2)nc2ccccc21; value = -2.69%
Structure (SMILES) = CO[C@@H]1[C@@H](O[C@@H]2O[C@H](C)[C@@H](O[C@H]3C[C@@](C)(O)[C@@H](OC(=O)CC(C)C)[C@H](C)O3)[C@H](N(C)C)[C@H]2O)[C@@H](CC=O)C[C@@H](C)[C@@H](O)/C=C/C=C/C[C@@H](C)OC(=O)C[C@H]1OC(C)=O; value = 0.64%
Structure (SMILES) = Nc1ncnc2c1c(-c1ccc(Cl)cc1)nn2-c1cccc(-c2cnnn2Cc2cccc(-c3ccccc3)c2)c1; value = 26.7%
Structure (SMILES) = CO/N=C(\C(=O)N[C@@H]1C(=O)N2C(C(=O)O)=C(CSC(=O)c3ccco3)CS[C@H]12)c1csc(N)n1; value = 1.88%
Structure (SMILES) = CCCN1C[C@H](NS(=O)(=O)N(CC)CC)C[C@H]2Cc3c(O)cccc3C[C@@H]21; value = -8.43%
Structure (SMILES) = Cn1cc(C2=C(c3cn(C4CCN(Cc5ccccn5)CC4)c4ccccc34)C(=O)NC2=O)c2ccccc21; value = -8.92%
Structure (SMILES) = Cl/C(=C\n1cncn1)c1ccc(Cl)cc1Cl; value = 1.86%
Structure (SMILES) = CC(C)C[C@H](NC(=O)CNC(=O)[C@H](Cc1ccc(O)cc1)NC(=O)[C@H](CO)NC(=O)[C@H](Cc1c[nH]c2ccccc12)NC(=O)[C@H](Cc1cnc[nH]1)NC(=O)[C@@H]1CCC(=O)N1)C(=O)N[C@@H](CCCNC(=N)N)C(=O)N1CCC[C@H]1C(=O)NCC(N)=O; value = 25.8%
Structure (SMILES) = Cc1cc(Cn2nnc3c(-c4ccco4)nc(N)nc32)ccc1N; value = -12.3%
Structure (SMILES) = CC(C)[C@@]1(NC(=O)[C@@H]2C[C@@H]3c4cccc5[nH]cc(c45)C[C@H]3N(C)C2)O[C@@]2(O)[C@@H]3CCCN3C(=O)[C@H](Cc3ccccc3)N2C1=O; value = 15.5%
Structure (SMILES) = N#Cc1ccc(-c2csc(NN=C3CCCC3)n2)cc1; value = -4.96%
Structure (SMILES) = CC(C)/N=c1\cc2n(-c3ccc(Cl)cc3)c3ccccc3nc-2cc1Nc1ccc(Cl)cc1; value = -3.6%
Structure (SMILES) = CCCNC(C)C(=O)Nc1c(C)csc1C(=O)OC (stereo not shown); value = -0.2%
Structure (SMILES) = O=C(c1ccc(Cl)cc1)N(Cc1ccccc1)C1CCCCC1; value = 0.01%
Structure (SMILES) = CN[C@H](CNC(=O)N1CCC[C@@H]([C@@H](OCCNC(=O)OC)c2cccc(Cl)c2)C1)C[C@H]1CCCOC1; value = 0.5%
Structure (SMILES) = CC(C)(O)CC(=O)O; value = -4.9%
Structure (SMILES) = CCS(=O)(=O)c1ccc2oc(-c3ccc4ccccc4c3)nc2c1; value = -11.3%
Structure (SMILES) = Oc1c(Cl)cc(Cl)c2cccnc12; value = -0.73%
Structure (SMILES) = CCCCCCCCCCCCCC(=O)OC(C)C; value = 1.25%
Structure (SMILES) = CCOc1nc2cccc(C(=O)O)c2n1Cc1ccc(-c2ccccc2-c2nnn[nH]2)cc1; value = 5.22%
Structure (SMILES) = CC(=O)N[C@@H](CC(C)C)C(=O)O; value = 18.8%

Set 4 — technique: protein-binding microarray; form: double-stranded DNA, one strand shown; sample: in vitro; concentration: 2540 nM top; setting: 60-bp whole probe; added: salmon DNA 0.4 mg/ml; reference: random background probes; reading: higher = stronger binding; quantity: fitted relative affinity; all sequences stand within: GCCTAGCAC … GTCTTGATTCGCTTGACGCTGCTG
Target: Interferon regulatory factor 3, full length, phosphomimetic (IRF3, Homo sapiens, UniProt Q14653, residues 1-427, S386D/S396D/S398D/S402D/T404D/S405D)
Target sequence (chain): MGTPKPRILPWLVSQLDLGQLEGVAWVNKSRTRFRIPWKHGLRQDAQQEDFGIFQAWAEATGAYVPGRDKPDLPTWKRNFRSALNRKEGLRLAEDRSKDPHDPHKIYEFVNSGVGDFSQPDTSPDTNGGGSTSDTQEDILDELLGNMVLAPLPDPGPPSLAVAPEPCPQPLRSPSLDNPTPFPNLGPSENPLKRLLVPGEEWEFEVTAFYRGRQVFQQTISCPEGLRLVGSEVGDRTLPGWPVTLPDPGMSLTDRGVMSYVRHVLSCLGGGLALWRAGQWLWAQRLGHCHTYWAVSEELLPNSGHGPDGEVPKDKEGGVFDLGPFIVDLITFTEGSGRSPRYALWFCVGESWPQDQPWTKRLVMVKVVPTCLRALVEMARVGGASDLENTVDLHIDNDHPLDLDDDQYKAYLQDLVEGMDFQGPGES
Strand = TTAGATTTGAGACTGGATTAGTGCTAG; value = -0.233 z-score
Strand = TTAGGTGTCGACTATCGGTTAGTGCTA; value = 0.921 z-score
Strand = TTAGGACTGGGTCCCGGTTAGTGCTAG; value = -0.891 z-score
Strand = TCACTTTTTTTAATTGAACTGTGCTAG; value = 1.14 z-score
Strand = CTGGCTTTGACTCTTTCTGTGTGCTAG; value = -0.583 z-score
Strand = GACGGTTTCCTTATCCTAACGTGCTAG; value = 7.97 z-score
Strand = TTAGGTTGCGGTATCGGTTAGTGCTAG; value = 5.39 z-score
Strand = AATATTCTGCTTTGCAATAAGTGCTAG; value = 0.422 z-score

Set 5 — technique: RNA Bind-n-Seq; form: RNA; sample: in vitro; concentration: 365 nM; reference: no-protein control; reading: higher = stronger binding; quantity: RBNS enrichment (R)
Target: RNA binding protein fox-1 homolog 2, RRM domain, GST-SBP tag (RBFOX2, Homo sapiens, UniProt O43251-10, residues 100-194)
Setting: natural RNA segment, single round, ends assumed
Strand = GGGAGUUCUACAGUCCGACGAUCACACAAAGUACUUGAUUUCCUGUGUCGGCUCAGAUACAAGAAACACACACAACUGUUACCCUGACAGAGAACAGAGAGAGAAGAUCCAAGAUAAGAAAACUGCAUGUGGAUGGAAUUCUCGGGUGCCAA; value = 15
Strand = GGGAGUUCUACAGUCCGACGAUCUUUGCCCUUCAGGACCCUUCUACUUUUUCCUUCCUGCCCUGUACCUCUCUCUGCUCCUCACCCCCACCCCUGUACCCAGCCACCUUCCUGACUGGGAAGGACAUAAAAGGUGGAAUUCUCGGGUGCCAA; value = 0.822
Strand = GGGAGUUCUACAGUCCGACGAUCAAUGGUAGCUACCUCAAACCUCAUUACGAAUUCAAUGAGUUAAACUUGAAAAGACUUAUUACAGUAGCUGGCACAUAAAGACUUGAUAGUAGUUUAUAUGGAUGCUAUCUUGGAAUUCUCGGGUGCCAA; value = 0.603
Strand = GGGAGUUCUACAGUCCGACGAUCUUGUUUCUAUUAUUAUCUUUUAAUUUCUUUUUUUAUUUAAUAGUAAUAGCUCCUUUCUCCUUCCUCUGAUUUUUAUAUGCUGCUAAAUAUAUUUUAAAUAUACUGUGUUUUGGAAUUCUCGGGUGCCAA; value = 1.18
Strand = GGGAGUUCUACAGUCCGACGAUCGCUUAAAACCAGCCCAGGCAACAUGGCAAAACCCCGUCUCUACAAAAAAAUACAAAAACUAGCUGGGUGUGGUGGCGCAUGCCUGUAGUCCCAGCUGAGGCACGAUAAUUUGGAAUUCUCGGGUGCCAA; value = 2.59
Strand = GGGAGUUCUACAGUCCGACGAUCUCGACAAGCCAGCACAGGCGAAGUGAUGGUUCCCACAGCACCCCCAAUAAAAACUGGGAUUUUGAAUGUGGCUCUACAAGUUAAACAUUUCUGUGUGUUGUGUAUGCUAGUGGAAUUCUCGGGUGCCAA; value = 0.362
Strand = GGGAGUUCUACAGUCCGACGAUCUCUUUCACGUGUUGUGUCCAUAGCUUUAGUCUUCCUAAAUAAGAUCCACCCACACCUAAGUCACAGAAUUUCUAAGUUCCCCAACUACUCUCACACCCUUUUAAAGAUAAUGGAAUUCUCGGGUGCCAA; value = 0.738
Strand = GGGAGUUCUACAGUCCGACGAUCUACUGAAGCAUCAAAGUGUAGUUUAACCUUAAGGUUGGGUUGUAAAUAACACAGUUGGGUGUAGGCAUGGUAAAUCUGAGCAGUCCAUCCUUAGUAUGGUGGAAAGAUUUUGGAAUUCUCGGGUGCCAA; value = 1.28

For quick reference, copied from above (set 3):
Structure (SMILES) = CO[C@@H]1[C@@H](O[C@@H]2O[C@H](C)[C@@H](O[C@H]3C[C@@](C)(O)[C@@H](OC(=O)CC(C)C)[C@H](C)O3)[C@H](N(C)C)[C@H]2O)[C@@H](CC=O)C[C@@H](C)[C@@H](O)/C=C/C=C/C[C@@H](C)OC(=O)C[C@H]1OC(C)=O; value = 0.64%
Structure (SMILES) = Nc1ncnc2c1c(-c1ccc(Cl)cc1)nn2-c1cccc(-c2cnnn2Cc2cccc(-c3ccccc3)c2)c1; value = 26.7%
Structure (SMILES) = CO/N=C(\C(=O)N[C@@H]1C(=O)N2C(C(=O)O)=C(CSC(=O)c3ccco3)CS[C@H]12)c1csc(N)n1; value = 1.88%
Structure (SMILES) = CCCN1C[C@H](NS(=O)(=O)N(CC)CC)C[C@H]2Cc3c(O)cccc3C[C@@H]21; value = -8.43%
